Measurements gathered from unrelated publications.
Each numbered part is a random draw from the data of one study; scales do not carry over between parts. Changes are numbered by the printed parent chain.

Set 1 — method: RNA Bind-n-Seq; molecule type: RNA; matrix: in vitro; concentration: 365 nM; reference: no-protein control; direction: higher = stronger binding; measurement: RBNS enrichment (R)
Target: RNA binding protein fox-1 homolog 2, RRM domain, GST-SBP tag (RBFOX2, Homo sapiens, UniProt O43251-10, residues 100-194)
Notes: natural RNA segment, single round, ends assumed
Shared flanks, not repeated: GGGAGUUCUACAGUCCGACGAUC … UGGAAUUCUCGGGUGCCAA
Construct (chain): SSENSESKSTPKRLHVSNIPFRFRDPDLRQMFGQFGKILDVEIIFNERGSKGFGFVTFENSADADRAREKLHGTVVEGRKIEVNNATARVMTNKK
UGUGAUAAAGAAGGGCCCAUCCUAUUUCCCCUCAUCUAGUCCAUUUACGAUUCUCACUGACUCCCCGUCUUCCUGGCAGACACAAAUAAACCCAGUGUCAGGUCUAGGAA: 0.374
AUUUUGCAAUAAUCUCUUUUCCCUUGUCAUGCAAGCCAAAAAUAUACCAGUAAAACAGAUUCUGACGUGUUUGUAGUUAUCAAAUGAAUGGCUCGAAACACUUCUCAAAA: 0.501
UAAAGAAAAAUUGUUCUCUAACCAGGAUUGUAACAAAUGUGUAAAUAGUAUUUCUGAGUUGAAAGUCGAUGGUGCAAAUAUGUAUAUAACGUACUGUAUUUUUACAAUGA: 0.517
UAAGUGUCCCAAAGAUAAGAUAUCUUGGGGUCCACCAUGAGCUUCCAGUUUCAGCCGAGGCAGCAGUUUUCCUGGGAUAAUUAGCCAAGGGUUCCCCAGAGUCUUCCUAG: 0.33
CCUUAGAUCCUUUUCUGGGUGAUAAUAGGGAUGUGGGCCUUUUGUGUUUAAGGAGAGUUUCUAAUAGGGCUGUGCUGGUAGAGUGUGAAGGGCCAGAGUCACAGUAUGGC: 1.01
AGAUGGAGUACCAGCACCGAAAAUGGGUUGAGGGAGGAUGGGUUGUAUGUAUGUUUCUGCCCACUAAUUUUGAGCAGCCAUAUUAUGAAUUAAAUCGUCACAGCCAAGUA: 1.34
GCUCGGGCUGGUUAAUGACUUGCUCAGCGUCCCAUGGCCUAGCCGCCCGCCCGGUGCCUCCCCCUGCUCCUGCAUGGCGGGACGGGCAGCGCCUCCUGCGGCCCCUCCAG: 0.768
CGUCAAUGUAUAUCCUUUUAUAACUCUACCACUUUGGGGCAAGCUAUUCCAGCACUGGUUUUGAAUGCUGUAUGCAACCAGUCUGAAUACCACAUACGCUGCACUGUUCU: 21.3
UCCGAGAGACUUUCUGCUAAUGGUUCAGGAGGCGGAAGAGGAGCUCCUGGCCUCCCAGGUCACGCCAAACAGGCUAGAUCUUCCUGAGGACAGCCACCCAGGUCUGCAGC: 0.498
ACCCCAGCAAUUUUUCCAAAAGCCAGUCAAGGGCAUUACAUUUGUUCCUGGGACUGGCAGCUGGGCCUCCUGGGUGCCAGUCCAUCUCAAGUGCCAUAUUCUGUGAUCAC: 0.253
GCAUGCCGCCACACCCGACUAAUUUUUUGUAUUUUUAGUAGAGUCAGGGUUUCACCGUGUUGCCCAGGCUGGUGUCGAACUCCUGACCUCAGGUGAUCUGCCCACCUCAG: 3.31
UUUUCUUUUGUCUUUUUAUUUUCAAUUAGUGACCCAUUGUUAAAUCCAAAUCCACUUUUACUGAAAAAUACUGUACAUGUGUAAAAUGUUCAGUUGUUUUUUUGUAAAAU: 2.29

Set 2 — method: DHFR PCA, deep sequencing; matrix: yeast; added: (+)-ABA 1.4 µM; reference: wild-type fitted maximum; direction: higher = stronger binding; measurement: relative binding score
Target: ABI1, truncated, D143A, DHFR fusion (Arabidopsis thaliana)
Notes: methotrexate growth selection, single substitutions
Starting sequence: PYL1, truncated, DHFR fusion (Arabidopsis thaliana); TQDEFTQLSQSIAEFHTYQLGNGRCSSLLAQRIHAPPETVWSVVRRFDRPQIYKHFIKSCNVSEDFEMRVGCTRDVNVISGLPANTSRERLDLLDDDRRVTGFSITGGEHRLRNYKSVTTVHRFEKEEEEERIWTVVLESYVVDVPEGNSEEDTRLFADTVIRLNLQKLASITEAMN; partner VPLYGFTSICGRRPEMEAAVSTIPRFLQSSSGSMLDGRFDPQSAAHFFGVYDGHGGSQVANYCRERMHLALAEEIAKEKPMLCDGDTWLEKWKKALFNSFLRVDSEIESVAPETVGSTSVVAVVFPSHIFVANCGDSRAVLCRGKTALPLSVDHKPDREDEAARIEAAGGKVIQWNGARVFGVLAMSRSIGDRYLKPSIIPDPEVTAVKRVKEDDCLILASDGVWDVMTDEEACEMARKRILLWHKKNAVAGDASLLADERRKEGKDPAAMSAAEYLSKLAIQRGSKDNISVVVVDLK
R113G: 15.7%
P146I: -0.619%
N114A: 2.85%
I172G: -19.5%
E67V: 63.7%
E14G: -1.48%
D97N: 62.5%
R113V: 48.1%
E152K: 25.8%
G148K: -23.5%
I172P: -13.5%
A30M: 74.2%
F66S: 29.5%
A35K: -27%
H34C: 68.5%
S42W: -1.64%
E89D: 7.5%
L82C: 9.71%

Set 3 — target: CCNA1, cyclin fold, Cln2 fusion (human); method: yeast growth competition, sequencing; matrix: yeast; notes: weak parent motif; reference: not given; direction: higher = stronger binding; measurement: normalised enrichment score
Starting sequence: MASTL docking peptide (human); PMIAKNLMCELDE; partner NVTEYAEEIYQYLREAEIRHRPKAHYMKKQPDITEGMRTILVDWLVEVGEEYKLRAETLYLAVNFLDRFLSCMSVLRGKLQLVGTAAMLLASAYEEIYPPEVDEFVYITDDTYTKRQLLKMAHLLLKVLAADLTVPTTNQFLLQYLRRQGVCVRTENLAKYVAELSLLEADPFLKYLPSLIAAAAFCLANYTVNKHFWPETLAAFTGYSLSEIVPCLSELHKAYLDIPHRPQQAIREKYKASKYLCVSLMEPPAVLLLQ
D12H: 0.226
L11R: 0.0605
C9Y: -0.106
L11C: 0.257
K5Q: 0.0414
C9T: -0.238
L7C: 0.0111
N6I: 0.214
N6L: 0.0462
E10N: 0.152
I3H: -0.0457
L7V: -0.247
M2D: 0.253
C9M: -0.108
E10K: 0.151
N6H: 0.12
M8Q: -0.105
K5C: 0.212
M8W: -0.0564
K5G: -0.15
M2K: 0.132
K5S: -0.344
A4D: -0.0139
L7M: -0.468
C9L: -0.124

Set 4 — method: protein-binding microarray; molecule type: double-stranded DNA, one strand shown; matrix: in vitro; concentration: 250 nM; notes: 60-bp whole probe; added: salmon DNA 0.4 mg/ml; reference: random background probes; direction: higher = stronger binding; measurement: log fluorescence; shared flanks, not repeated: GCCTAGCAC … GTCTTGATTCGCTTGACGCTGCTG
Target: Interferon regulatory factor 7, full length, phosphomimetic (IRF7, Homo sapiens, UniProt Q92985, residues 1-503, S101K/S471D/S472D/S475D/S476D/S477D/S483D/S484D/S487D)
Chain of UniProt Q92985 (whole entry, unmodified, looked up): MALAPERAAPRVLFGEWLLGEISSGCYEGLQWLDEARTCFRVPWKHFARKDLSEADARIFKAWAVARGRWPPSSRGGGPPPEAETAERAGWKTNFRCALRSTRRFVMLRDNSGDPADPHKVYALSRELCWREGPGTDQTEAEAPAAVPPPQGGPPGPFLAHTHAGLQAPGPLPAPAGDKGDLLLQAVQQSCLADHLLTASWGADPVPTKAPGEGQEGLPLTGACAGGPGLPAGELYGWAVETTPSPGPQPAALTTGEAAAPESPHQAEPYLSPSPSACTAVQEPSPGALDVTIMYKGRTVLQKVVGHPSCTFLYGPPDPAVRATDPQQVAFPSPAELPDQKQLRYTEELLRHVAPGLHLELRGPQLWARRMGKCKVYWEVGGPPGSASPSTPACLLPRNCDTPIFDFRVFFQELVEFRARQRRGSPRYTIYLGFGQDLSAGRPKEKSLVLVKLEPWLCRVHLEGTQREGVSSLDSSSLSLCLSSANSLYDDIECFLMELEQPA
GTTGTACTTTCTATCTCTGTGTGCTAG: 1.01 z-score
GACGATTTCAGTCTCGAGACGTGCTAG: 1.06 z-score
TTAGATTCCAGTGTCGATTAGTGCTAG: 0.772 z-score
TTATAACTGGGGTATCGATTAGTGCTA: 0.338 z-score
TTTACTTTCTACGTCTGATTGTGCTAG: 1.2 z-score
GACGAACTGAGTCTCGAAACGTGCTAG: 0.683 z-score
GACGGACTGCTTTTCATGACGTGCTAG: -0.233 z-score
TGAGAACTGGGGACTGGATTAGTGCTA: -0.431 z-score
GACGAACTGGGGTATCGTGACGTGCTA: -0.607 z-score
TCAGTCCTGGCTTTGACACTGTGCTAG: -0.412 z-score
TTAGGTCTCGTACTGCTTTAGTGCTAG: 1.07 z-score
AACGGTTTCGGTTTCGGGACGTGCTAG: 14.1 z-score
TTAAGACTGGACTTTCGGTTAGTGCTA: 0.675 z-score
GACGGACTGGGTTTCGGGAGGTGCTAG: 0.633 z-score
TTAGGTATCGACGTTCGGTTAGTGCTA: 0.467 z-score
GAAGGTTTCCTTCTCCTGACGTGCTAG: 2.15 z-score
TCATGTTTGAGAAATCAGACTGTGCTA: 0.433 z-score
TTAGATATCAGCATCGATTAGTGCTAG: 0.0254 z-score
TTAGAACTGAGACTGGATGAGTGCTAG: -0.447 z-score

Repeated from above (set 2):
I172G: -19.5%
E67V: 63.7%
E14G: -1.48%
D97N: 62.5%
R113V: 48.1%
E152K: 25.8%
G148K: -23.5%
I172P: -13.5%
A30M: 74.2%
F66S: 29.5%
A35K: -27%
H34C: 68.5%
S42W: -1.64%
